Measured values gathered from unrelated publications.
TDP1: Tyrosyl-DNA phosphodiesterase 1 (TDP1, Homo sapiens, UniProt Q9NUW8)
UniProt Q9NUW8, sequence (whole entry, looked up): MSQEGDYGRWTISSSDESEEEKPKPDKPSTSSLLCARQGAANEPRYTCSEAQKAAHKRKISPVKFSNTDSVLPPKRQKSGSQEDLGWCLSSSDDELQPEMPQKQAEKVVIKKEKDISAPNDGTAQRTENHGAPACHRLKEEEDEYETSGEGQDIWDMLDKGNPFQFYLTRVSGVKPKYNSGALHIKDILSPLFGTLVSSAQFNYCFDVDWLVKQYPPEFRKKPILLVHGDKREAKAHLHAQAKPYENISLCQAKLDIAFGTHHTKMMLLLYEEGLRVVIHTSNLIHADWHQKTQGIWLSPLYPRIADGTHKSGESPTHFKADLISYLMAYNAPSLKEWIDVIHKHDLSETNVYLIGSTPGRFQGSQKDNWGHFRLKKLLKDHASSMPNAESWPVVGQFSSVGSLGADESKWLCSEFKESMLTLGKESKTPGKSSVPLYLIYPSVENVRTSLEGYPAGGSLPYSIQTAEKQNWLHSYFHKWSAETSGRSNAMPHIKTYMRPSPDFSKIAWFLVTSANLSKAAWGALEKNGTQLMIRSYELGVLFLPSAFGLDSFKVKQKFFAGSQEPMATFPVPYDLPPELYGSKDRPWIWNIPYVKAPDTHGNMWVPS
ADRB3: Beta-3 adrenergic receptor (ADRB3, Homo sapiens, UniProt P13945)
UniProt P13945, sequence (whole entry, looked up): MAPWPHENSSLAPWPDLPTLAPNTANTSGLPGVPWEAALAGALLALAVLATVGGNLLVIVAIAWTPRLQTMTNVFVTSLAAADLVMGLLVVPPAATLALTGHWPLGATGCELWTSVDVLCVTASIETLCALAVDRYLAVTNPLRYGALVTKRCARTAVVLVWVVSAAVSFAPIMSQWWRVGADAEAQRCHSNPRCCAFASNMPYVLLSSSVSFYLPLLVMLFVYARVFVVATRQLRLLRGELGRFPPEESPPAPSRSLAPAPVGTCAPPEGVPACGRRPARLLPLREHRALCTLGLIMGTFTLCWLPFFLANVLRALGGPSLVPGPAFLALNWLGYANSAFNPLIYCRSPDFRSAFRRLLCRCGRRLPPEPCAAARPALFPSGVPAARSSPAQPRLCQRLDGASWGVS
ppa: Inorganic pyrophosphatase (ppa, Escherichia coli, UniProt P0A7A9)
UniProt P0A7A9, sequence (whole entry, looked up): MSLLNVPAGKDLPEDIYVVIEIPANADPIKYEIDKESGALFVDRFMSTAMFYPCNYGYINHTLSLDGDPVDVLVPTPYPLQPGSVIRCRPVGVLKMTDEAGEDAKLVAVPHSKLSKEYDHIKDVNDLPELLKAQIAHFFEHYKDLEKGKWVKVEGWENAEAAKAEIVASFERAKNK
Uncharacterized protein: Uncharacterized protein (Trypanosoma brucei brucei, UniProt Q386Q8)
UniProt Q13639, sequence (whole entry, looked up): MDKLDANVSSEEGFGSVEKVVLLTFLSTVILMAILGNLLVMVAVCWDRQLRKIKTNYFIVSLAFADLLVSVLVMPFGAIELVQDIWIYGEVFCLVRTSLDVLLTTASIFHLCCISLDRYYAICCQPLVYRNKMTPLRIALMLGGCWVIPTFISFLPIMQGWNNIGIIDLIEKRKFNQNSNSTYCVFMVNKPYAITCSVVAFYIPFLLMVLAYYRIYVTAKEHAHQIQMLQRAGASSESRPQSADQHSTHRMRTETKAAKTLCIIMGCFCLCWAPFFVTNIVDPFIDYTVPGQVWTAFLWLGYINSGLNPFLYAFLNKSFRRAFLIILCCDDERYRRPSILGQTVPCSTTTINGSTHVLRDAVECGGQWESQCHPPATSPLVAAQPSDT

O=C(O)c1ccc(Nc2c(-c3ccc(CON=Cc4cccc(N5CCCCC5)n4)cc3)nc3cc(-c4ccccc4)ccn23)cc1 — inhibition (TDP1; enzyme activity, inhibitor; 100 µM, unpurified compound): 31.2%
CN(Cc1ccc(/C=C/C(=O)NO)cc1)CC12CC3CC(CC(C3)C1)C2 — inhibition (alpha1 adrenoceptor; antagonist radioligand binding; 0.05 µM): -2%
O=C1c2sc(-c3ccc(N4CCC(F)C4)nc3F)nc2CCN1c1cccnc1 (stereo not drawn) — inhibition (ADRB3; ligand displacement, radioligand; 1 µM): -4%
Cc1nc2c(C)cccn2c1C=NOCc1ccc2nc(-c3ccccc3)c(Nc3ccc(C(=O)O)cc3)n2c1 (mixture of isomers) — inhibition (TDP1; enzyme activity, inhibitor; 100 µM, unpurified compound): 1.3%
C=C(NC(=O)c1csc(-c2nc3c(cc2O)-c2nc(cs2)C(=O)NC(C(C)O)C(=O)NC(=C(C)OC)c2nc(cs2)C(=O)NC2c4nc(cs4)C(=O)NC(COC(=O)c4c5c6c(cccc6n4O)COC(=O)C(OC4CC(C)(O)C(N(C)C)C(C)O4)C2OC5)c2nc-3cs2)n1)C(N)=O (stereo not drawn) — AUC(0-t) (ICR mice, Streptococcus pneumoniae ATCC 49169 infected, immunocompromised, blood; intravenous, 16 mg/kg/day twice daily): 1240 ng·h/mL
COc1ccc(NC(=O)Nc2cc(C(C)(C)C)on2)cc1OC — inhibition (ppa; inhibitor, counter-screen, coupling enzyme alone; 30 µM): -8.2%
Cc1ncsc1-c1ccc(C(C)NC(=O)C2CC(O)CN2C(=O)C(NC(=O)CCCCCCCCCCN2CCCC(Nc3ncc(Cl)c(Nc4ccccc4S(=O)(=O)C(C)C)n3)C2)C(C)(C)C)cc1 (stereo not drawn) — log2 fold change (22Rv1; RNA-seq, item: SLC5A3 mRNA; concentration not given; baseline: DMSO): -1.48
C=CC(=O)Nc1cccc(Cn2ncc3cnc(Nc4cnn(CCOC)c4)nc32)c1 — percent of control (EPHB6 human; binding, KINOMEscan; 100 nM; lower = stronger binding): 29%
Nc1ncc(-c2cc(-c3cnn(CC(F)(F)F)c3)ncc2F)nc1C(=O)NC1CNCC(F)C1 (stereo not drawn) — remaining binding (NDR2; KINOMEscan; 1 µM; baseline: DMSO control): 66%
CC(C)Cn1c(SCC(=O)N2CCc3ccccc3C2)nc2cc(Cl)ccc2c1=O — inhibition (ADRB3; ligand displacement, radioligand; 10 µM): 29%
COc1cccc2cc(C=NOCc3ccc4nc(-c5ccccc5)c(Nc5ccc(C(=O)O)cc5)n4c3)oc12 — inhibition (TDP1; enzyme activity, inhibitor; 100 µM, unpurified compound): -3.6%
COC1CN([C@H]2CC[C@H]([C@@]3(C)Oc4c(Cl)cc(C(=O)NCc5c(SC)cc(C)[nH]c5=O)c(C)c4O3)CC2)C1 — log2 fold change (RNA-seq, item: PRDM16 mouse homolog; mouse, HT-1376 xenograft, whole blood; dose not given; baseline: vehicle): 4.56
C[N+]1(Cc2ccc3ccccc3c2)CCN(CCCN2c3ccccc3Sc3ccc(Cl)cc32)CC1 — inhibition (Uncharacterized protein; enzyme activity, inhibitor, coupled colorimetric; 30 µM, added: E. coli pyrophosphatase coupling): 30.6%
O=C1c2sc(-c3ccc(N4CCC(CO)CC4)nc3F)nc2CCN1c1cccnc1 — inhibition (5-hydroxytryptamine receptor 4, isoform 5-HT4e (HTR4, Homo sapiens, UniProt Q13639); radioligand binding, antagonist; 1 µM): -14%
C[N+]1(Cc2ccccc2)CCN(CCCN2c3ccccc3Sc3ccc(Cl)cc32)CC1 — inhibition (Uncharacterized protein; enzyme activity, inhibitor, coupled colorimetric; 30 µM, added: E. coli pyrophosphatase coupling): 25.8%
Cc1ccc(-c2nn(-c3ccccc3)cc2C=NOCc2ccc(-c3nc4cc(-c5ccccc5)ccn4c3Nc3ccc(C(=O)O)cc3)cc2)o1 — inhibition (TDP1; enzyme activity, inhibitor; 100 µM, unpurified compound): 78.3%
N#CSc1sc(N)nc1-c1ccccc1 — inhibition (ppa; inhibitor, counter-screen, coupling enzyme alone; 30 µM): 60.1%
CN1CCCNC(=O)c2cccc(c2)C(=O)NCCCN(C)CCCNc2cccc3c2C(=O)c2cccc(c2C3=O)NCCC1 — log2 fold change (SAS; RNA-Seq, item: SLC12A8 mRNA; 1 µM, 6 h; baseline: untreated cells): -1.06

Repeated from above:
Cc1ccc(-c2nn(-c3ccccc3)cc2C=NOCc2ccc(-c3nc4cc(-c5ccccc5)ccn4c3Nc3ccc(C(=O)O)cc3)cc2)o1 — inhibition (TDP1; enzyme activity, inhibitor; 100 µM, unpurified compound): 78.3%
